Measured values pooled from the literature.
± gives the spread as reported.

`C[C@@H](O)[C@H](NC(=O)c1ccc(-c2ccccc2)cc1)C(=O)NO` gave a solubility of 95 µg/mL (aqueous buffer; pH 7.4).
The solubility of `COC1=CC(c2ccc[nH]2)=N/C1=C\c1[nH]c(C)cc1Cc1ccc(OC(F)(F)F)cc1.Cl` is reported as under 3.13 µM (potassium phosphate buffer; 1.5 h, pH 7.4, room temperature).
`Cc1nc(C)c(-c2ccnc(Nc3ccc(Cl)cc3)n2)s1` gave a solubility of under 1.7 µg/mL (aqueous buffer; pH 7.4).
`CC(C)(C)c1ccc([C@H]2COC[C@H](c3ccc(Cl)cc3)N2)cc1` gave a solubility of under 4 µM (shake-flask, LC-HRMS; aqueous buffer; 16 h, pH 6.8).
For `CCCCNc1ccnc(Nc2cccc(-c3cccnc3)c2)n1`, the solubility was 5 ± 0.2 µM (citrate phosphate-buffered saline; 18 h, pH 7.4, 1% DMSO).
With `CCOC(=O)N1C[C@@H](c2ccc(C(C)=O)cc2)N[C@@H](C(C)(C)C)C1` the solubility was under 4 µM (shake-flask, LC-HRMS; aqueous buffer; 16 h, pH 6.8).
`CC(C)(C)c1ccc(CN2CCN(C(c3ccccc3)c3ccc(Cl)cc3)CC2)cc1` (stereo not shown) gave a solubility of 2 µM (PBS; 2 h, pH 7.4, 25 °C, 2% DMSO).
`Cc1nccn1CC1CCc2c(c3ccccc3n2C)C1=O` (stereo not shown) has a solubility of 103 µM (kinetic solubility; PBS with 2% DMSO; 2 h, pH 7.4, 25 °C, mean of incubations).
With `CCOC(=O)N1C[C@@H](c2ccc(C(=O)OC)cc2)N[C@@H](c2cnc(-c3ccccc3)nc2)C1` the solubility was under 4 µM (shake-flask, LC-HRMS; aqueous buffer; 16 h, pH 6.8).
`COc1cc(OC)c2c(=O)c(OC)c(-c3ccccc3)oc2c1` has a solubility of 2373 ± 15 ppm (HPLC; ethanol:butylene glycol 100:0).
For `O=S(=O)(c1ccc(-c2ccc3nccc(Nc4ccc5[nH]nnc5c4)c3c2)cc1)N1CCOCC1`, the solubility was 5 µM (thermodynamic; aqueous medium).
With `Fc1ccc([C@@H]2COC[C@H](c3cc(Cl)cc(Cl)c3)N2)cc1` the solubility was under 4 µM (shake-flask, LC-HRMS; aqueous buffer; 16 h, pH 6.8).
With `Cn1cncc1[C@@](N)(c1ccc(Cl)cc1)c1ccc2c(c1)c(-c1cccc(Cl)c1)cc(=O)n2C` the solubility was 2200 ± 52.8 µg/mL (citrate buffer; pH 3.0, 25 °C, final pH 3.21).
The solubility of `NC[C@H](NC(=O)c1ccc(-c2ccc(Br)cc2)cc1)C(=O)NO` is reported as under 2.7 µg/mL (aqueous buffer; pH 7.4).
`COc1ccc(-n2nc(C(=O)NC(=O)OCc3cc(C(=O)O)ccc3OP(=O)(O)O)c3c2C(=O)N(c2ccc(N4CCCCC4=O)cc2)CC3)cc1` gave a solubility of 43000 µg/mL (HPLC, saturated solution; HBSS; 30 s, pH 6.5).
The solubility of `Fc1ccc([C@H]2COC[C@H](c3ccc(-c4ccccc4)cc3)N2)cc1` is reported as under 4 µM (shake-flask, LC-HRMS; aqueous buffer; 16 h, pH 6.8).
With `CC(Sc1nc2ccccc2[nH]1)C(=O)Nc1ccc(S(N)(=O)=O)cc1` (stereo not shown) the solubility was 7.84 µg/mL (aqueous buffer; pH 7.4).
`CCOC(=O)N1C[C@@H](C2CCCCC2)N[C@@H](c2cc(Cl)cc(Cl)c2)C1` has a solubility of under 4 µM (shake-flask, LC-HRMS; aqueous buffer; 16 h, pH 6.8).
For `O=C(CC1OCCN(Cc2ccccc2)C1=O)Nc1ccc2c(c1)OCCO2` (stereo not shown), the solubility was 45.5 µg/mL (aqueous buffer; pH 7.4).
For `Nc1nc2c(ncn2COCCO)c(=O)[nH]1`, the solubility was 312 µg/mL (methanol + ethanol; 24 h, 298.2 K, mass fraction 0.9).
`CNC(=O)c1ccccc1Nc1cc(Nc2ccc(N3CCOCC3)cc2OC)ncc1C(F)(F)F` gave a solubility of over 47000 µg/mL (dimethylacetamide; 24 h, 25 °C).
`C[C@H]1OC[C@H](C2CCCC2)N[C@@H]1c1cccc(Cl)c1` has a solubility of under 4 µM (shake-flask, LC-HRMS; aqueous buffer; 16 h, pH 6.8).
For `CC[C@@H](C)Nc1ccnc(Nc2cccc(-c3cccnc3)c2)n1`, the solubility was 17.5 ± 1.9 µM (citrate phosphate-buffered saline; 18 h, pH 7.4, 1% DMSO).
`CCC[C@H](C)[C@H]1CN(C(=O)OCC)C[C@@H](c2cccc(Br)c2)N1` has a solubility of under 4 µM (shake-flask, LC-HRMS; aqueous buffer; 16 h, pH 6.8).
The solubility of `COc1cc(NC(=O)CSc2nncn2C)cc(OC)c1OC` is reported as 1390 µg/mL (aqueous buffer; pH 7.4).

For quick reference, copied from above:
For `O=S(=O)(c1ccc(-c2ccc3nccc(Nc4ccc5[nH]nnc5c4)c3c2)cc1)N1CCOCC1`, the solubility was 5 µM (thermodynamic; aqueous medium).
`C[C@H]1OC[C@H](C2CCCC2)N[C@@H]1c1cccc(Cl)c1` has a solubility of under 4 µM (shake-flask, LC-HRMS; aqueous buffer; 16 h, pH 6.8).
